# Results collected from several papers.
# Every numbered part comes from another study and shows a few of its results, in no order.

# Sample 1 — method: RNA Bind-n-Seq; molecule type: RNA; sample: in vitro; concentration: 365 nM; relative to: no-protein control; reading: higher = stronger binding
# Target: RNA binding protein fox-1 homolog 2, RRM domain, GST-SBP tag (RBFOX2, Homo sapiens, UniProt O43251-10, residues 100-194)
# Notes: natural RNA segment, single round, ends assumed
# Target sequence (chain): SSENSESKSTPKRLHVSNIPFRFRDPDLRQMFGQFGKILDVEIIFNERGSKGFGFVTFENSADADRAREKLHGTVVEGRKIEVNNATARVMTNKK
Sequence,RBNS enrichment (R)
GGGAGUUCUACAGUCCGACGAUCCUGACCGUGUGUUACUGCUUUGCCGACGGGGCCUCCCGGCCCUGAUGCGUGUACACUCUGCGGGCUGCACCGGGUGGCUCUGGUUGGGGGCGAAGCUGUGUUGACUGGGAUGGAAUUCUCGGGUGCCAA,0.379
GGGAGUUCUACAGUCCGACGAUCGCCAUUCGGACCCGACCGAUGUAAAUACAGCCGCCCGUCCGCCCGCCUUCCUCCCGGGCUCCCCGGCCUUGCCCGCCCCCUCCCGGGCGUCCCUGUCCAGGGCCCCGGCUUGGAAUUCUCGGGUGCCAA,0.234
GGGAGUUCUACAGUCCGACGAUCGAGGACAGAGGGGAGGGACUUGGUGUGAUAGACAUAUAACAGUCACUUCUUGAAGAAGUGCAGUUGUAAAUAAGCCAUGUAAAAUGCCUUUUUAAAGUUUAAUUUUAUAGUGGAAUUCUCGGGUGCCAA,0.927
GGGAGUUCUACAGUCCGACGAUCUCUGCUGGGGUUUGUGUAAGCUGUGAUUCUUUCCCUUCCUAAUAGGUUGAGCUUGACAUGGAAAGGAGCAGUUGGCAGGGAAGGAACUUAUUCCCCAAGAGUGGUAACUAUGGAAUUCUCGGGUGCCAA,2.55
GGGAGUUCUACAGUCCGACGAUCAGGUUGCAGUGAGCUGAGAUUGCACCACUGUACUCCAACCUGGGCGACAGAGCAAGACUGUGUCUCAAAAAGAAAAAAAUUUGUUCAAAAGACAUAAAUGAAUUAGGCACUGGAAUUCUCGGGUGCCAA,0.492
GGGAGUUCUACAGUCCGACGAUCCAUGUUCCGUAAUGUGCCCACAGCAAACCCCACGGAGCCGGGAAUCAGACGGGUUCCGGGGGCCUCAGAGGUGAUCCGGGAGUCGAGCAGCACAACAGGGAUGGUCGUCGUGGAAUUCUCGGGUGCCAA,0.366
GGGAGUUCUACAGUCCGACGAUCGGGACGGGGCCGCUCAGGGCGUUAGGAGAAUAGAGGAAGAGAGGGCAGCUGUGAGAACCCGGCUCGUUCCGACCUGCGGAUAGUCAAGCGAUCAGAGUAUGUCUUGUGUGUGGAAUUCUCGGGUGCCAA,2.22
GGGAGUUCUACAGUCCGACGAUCACUCUAAUGUGACUGUAUAUACUGCUCGGAGUAAGAAUGUGCUAAGAUCAGAAUGCCUGUUCGUGGUUUCAUAUAAUAUAUUUUUCUAAAAGCAUAGAUUGCACAGGAAGUGGAAUUCUCGGGUGCCAA,0.765

# Sample 2 — method: RNAcompete; molecule type: RNA; sample: in vitro; concentration: 20 nM; notes: 7-mer, probes averaged, single round; relative to: mean of 7-mers; reading: higher = stronger binding
# Target: PABPC1L2, full length, GST fusion (mouse, UniProt A0ABA7IW68)
# Construct (chain): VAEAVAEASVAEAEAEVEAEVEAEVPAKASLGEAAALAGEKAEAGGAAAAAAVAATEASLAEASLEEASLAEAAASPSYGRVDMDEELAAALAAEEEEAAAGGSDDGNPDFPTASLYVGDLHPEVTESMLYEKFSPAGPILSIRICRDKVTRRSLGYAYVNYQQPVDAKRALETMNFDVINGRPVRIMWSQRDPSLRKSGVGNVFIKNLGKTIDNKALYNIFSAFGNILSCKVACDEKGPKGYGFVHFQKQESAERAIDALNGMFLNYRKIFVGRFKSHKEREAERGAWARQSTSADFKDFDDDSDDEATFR
Sequence,7-mer Z-score
UUUGGGC,-0.251
UCCUUCC,-0.441
CUAGCGA,-0.115
GAAGGUC,-0.162
UUCUCGC,-0.443
CGGUUGU,-0.385
UCAGUCC,-0.345
CGAUCGA,-0.106
GAGGUGC,0.249
CGGUAUU,-0.302
CAGCGCC,-0.0337
UUCCCAU,-0.405
CUGUGUG,-0.333
GCACCCC,-0.374
UCACCCU,-0.264
CGACCCU,-0.222
UGACCGU,-0.204
GGGAGAA,0.37
UGCCAUG,-0.124
GUGGCCC,-0.0645
CAGGUAA,0.2

# Sample 3 — method: protein-binding microarray; molecule type: double-stranded DNA, one strand shown; sample: in vitro; concentration: 250 nM; notes: 60-bp whole probe; together with: salmon DNA 0.4 mg/ml; relative to: random background probes; reading: higher = stronger binding; constant ends, left off below: GCCTAGCAC … GTCTTGATTCGCTTGACGCTGCTG
# Target: Interferon regulatory factor 7, full length, phosphomimetic (IRF7, Homo sapiens, UniProt Q92985, residues 1-503, S101K/S471D/S472D/S475D/S476D/S477D/S483D/S484D/S487D)
# Target sequence (chain): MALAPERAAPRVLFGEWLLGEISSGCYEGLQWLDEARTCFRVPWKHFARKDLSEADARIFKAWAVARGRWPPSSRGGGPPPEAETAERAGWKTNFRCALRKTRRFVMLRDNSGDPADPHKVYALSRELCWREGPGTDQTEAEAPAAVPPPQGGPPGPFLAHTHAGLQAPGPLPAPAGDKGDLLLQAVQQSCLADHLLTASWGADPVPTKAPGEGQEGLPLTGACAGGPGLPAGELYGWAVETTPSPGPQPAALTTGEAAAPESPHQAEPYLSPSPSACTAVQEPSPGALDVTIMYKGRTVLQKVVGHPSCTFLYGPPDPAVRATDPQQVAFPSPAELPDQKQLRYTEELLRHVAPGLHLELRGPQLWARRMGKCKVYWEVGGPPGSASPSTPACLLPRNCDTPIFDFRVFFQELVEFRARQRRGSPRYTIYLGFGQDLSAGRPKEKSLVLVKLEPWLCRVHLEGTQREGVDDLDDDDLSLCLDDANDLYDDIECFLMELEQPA
Sequence,log fluorescence [z-score]
TTAGGTCTCCTTATACTTTAGTGCTAG,0.403
TATGAAATGGAAGTTTAGGGGTGCTAG,-0.299
ATTACTTTAGGTTCCCAGGTGTGCTAG,0.487
CACAGTCTGAGATCCAGAAGGTGCTAG,0.19
TTAGAACTGTGGTATCGATTAGTGCTA,0.627
TTAGATTTCGGGCATCGATTAGTGCTA,0.328
TAAATTTTCACGGTGGGTTCGTGCTAG,0.099
TTAGGTAGCGACTTTCGGTTAGTGCTA,0.6
TTAGGTCTCGGACTGGGCTAGTGCTAG,0.0474
CTTCCCCTCTCTTTCCAACTGTGCTAG,1.89
GACGGTATCGGGGATCGGGACGTGCTA,-0.506
GACGGCTTCGGTCTCGGGACGTGCTAG,-0.0482
CTAATTTCCATTTTCTAAATGTGCTAG,4.32
GGCGAACTGAGTTTCGAGACGTGCTAG,3.33
TCAGGTCTCCCTTGAGGTTTGTGCTAG,-0.302
CATTATATTTTAATCACATAGTGCTAG,1.07
TTAGGACTGGGTTCCGGTTAGTGCTAG,1.43
GACGATAACAGTCTCGAGACGTGCTAG,0.335
TAAATTTTGATGGAGAGTGCGTGCTAG,-0.188

# Sample 4 — method: protein binding microarray; molecule type: double-stranded DNA, one strand shown; sample: in vitro; concentration: not given; relative to: not given; reading: higher = stronger binding
# Target: Histone acetyltransferase KAT6A, winged helix 1, GST fusion (KAT6A, Homo sapiens, UniProt Q92794, residues 1-85)
# Notes: 8-mer, flanks averaged, mean of 2 arrays, mostly near background
# Target sequence (chain): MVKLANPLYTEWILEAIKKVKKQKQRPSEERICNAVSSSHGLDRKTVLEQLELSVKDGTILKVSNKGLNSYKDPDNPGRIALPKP
Sequence,E-score
CTTACCGA,0.0258
AGCGTCTC,0.116
GAGACGCA,0.225
ATCGACAT,-0.0648
GTGAGAGA,-0.165
AGTTTTCA,-0.0617
CCTGCTAA,-0.198
GGAACTTA,0.0331
ATGTACTA,-0.0591
TATCAACA,-0.179
TCAGGGAA,-0.0585
ACCAACCA,-0.141
AATCTACC,0.0246
CTCCATGA,-0.184
ACATCCGG,0.166
CGTCGGAC,0.386
TCGCCTAA,0.106
ATGGATCG,0.138
TAATGTGA,-0.082
AGGCACAC,-0.159
AGTCGTGA,-0.18
AGATGGAG,-0.0777
CGTTTTGC,0.0577
GAAACGGC,0.239
ACTCGGAA,-0.0904

# Further values, each from its own experiment
Molecule,target,test,system,setting,how to read,endpoint,value
"PhoQ, residues 284 288 289 292 302 303 SASVAL","PhoP, residues 12 14 15 18 19 SYFRT (Escherichia coli, UniProt P23836)","Sort-seq, refers to: YFP reporter",E. coli,"PhoQ-PhoP variant library, together with: 10 µM Mg2+","relative to: high Mg2+ state, higher = stronger signaling",fold induction,0.728
